Assay results from different studies.
A part holds a random share of what one study measured.
Chain of UniProt Q9UM73 (whole entry, unmodified, looked up): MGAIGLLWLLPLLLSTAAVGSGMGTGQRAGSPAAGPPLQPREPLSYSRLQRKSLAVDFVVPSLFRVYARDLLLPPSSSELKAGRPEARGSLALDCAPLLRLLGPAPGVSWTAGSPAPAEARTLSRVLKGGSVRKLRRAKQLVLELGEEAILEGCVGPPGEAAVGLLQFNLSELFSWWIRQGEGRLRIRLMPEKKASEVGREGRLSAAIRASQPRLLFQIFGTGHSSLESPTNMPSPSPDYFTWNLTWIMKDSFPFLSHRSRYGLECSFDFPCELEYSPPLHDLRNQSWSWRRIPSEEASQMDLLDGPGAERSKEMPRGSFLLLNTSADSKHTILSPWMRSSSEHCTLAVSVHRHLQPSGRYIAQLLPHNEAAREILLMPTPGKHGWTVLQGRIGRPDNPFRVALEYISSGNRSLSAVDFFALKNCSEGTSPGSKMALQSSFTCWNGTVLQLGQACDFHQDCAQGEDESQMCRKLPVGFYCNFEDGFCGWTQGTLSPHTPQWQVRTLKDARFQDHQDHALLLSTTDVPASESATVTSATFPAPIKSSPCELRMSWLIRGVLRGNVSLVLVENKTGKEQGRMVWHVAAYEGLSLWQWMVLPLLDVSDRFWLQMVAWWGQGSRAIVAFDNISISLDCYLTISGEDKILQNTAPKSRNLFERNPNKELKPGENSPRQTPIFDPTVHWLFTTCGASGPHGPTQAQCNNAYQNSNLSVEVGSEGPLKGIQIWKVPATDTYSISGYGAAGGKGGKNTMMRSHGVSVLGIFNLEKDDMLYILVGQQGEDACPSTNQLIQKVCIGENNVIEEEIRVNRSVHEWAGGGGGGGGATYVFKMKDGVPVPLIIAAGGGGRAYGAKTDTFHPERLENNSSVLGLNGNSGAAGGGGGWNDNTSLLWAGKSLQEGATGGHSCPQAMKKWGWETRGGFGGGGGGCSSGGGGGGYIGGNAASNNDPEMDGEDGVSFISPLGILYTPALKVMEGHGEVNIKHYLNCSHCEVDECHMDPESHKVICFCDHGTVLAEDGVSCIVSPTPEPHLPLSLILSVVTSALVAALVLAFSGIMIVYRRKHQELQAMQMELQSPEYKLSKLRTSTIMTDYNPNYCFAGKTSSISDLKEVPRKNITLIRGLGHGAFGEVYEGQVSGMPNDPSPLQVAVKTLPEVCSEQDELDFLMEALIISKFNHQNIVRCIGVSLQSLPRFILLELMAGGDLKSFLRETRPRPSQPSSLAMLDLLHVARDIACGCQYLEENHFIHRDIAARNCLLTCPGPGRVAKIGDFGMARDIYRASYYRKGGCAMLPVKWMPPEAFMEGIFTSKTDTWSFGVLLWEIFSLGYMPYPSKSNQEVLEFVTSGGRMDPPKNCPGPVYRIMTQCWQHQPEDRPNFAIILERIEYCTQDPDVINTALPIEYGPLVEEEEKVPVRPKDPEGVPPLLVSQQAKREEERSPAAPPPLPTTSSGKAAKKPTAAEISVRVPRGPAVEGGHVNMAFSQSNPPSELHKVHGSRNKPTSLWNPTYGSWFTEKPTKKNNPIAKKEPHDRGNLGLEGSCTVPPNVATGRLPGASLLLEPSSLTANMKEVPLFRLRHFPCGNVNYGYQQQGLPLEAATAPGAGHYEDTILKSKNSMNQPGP
Chain of UniProt Q9NSY1 (whole entry, looked up): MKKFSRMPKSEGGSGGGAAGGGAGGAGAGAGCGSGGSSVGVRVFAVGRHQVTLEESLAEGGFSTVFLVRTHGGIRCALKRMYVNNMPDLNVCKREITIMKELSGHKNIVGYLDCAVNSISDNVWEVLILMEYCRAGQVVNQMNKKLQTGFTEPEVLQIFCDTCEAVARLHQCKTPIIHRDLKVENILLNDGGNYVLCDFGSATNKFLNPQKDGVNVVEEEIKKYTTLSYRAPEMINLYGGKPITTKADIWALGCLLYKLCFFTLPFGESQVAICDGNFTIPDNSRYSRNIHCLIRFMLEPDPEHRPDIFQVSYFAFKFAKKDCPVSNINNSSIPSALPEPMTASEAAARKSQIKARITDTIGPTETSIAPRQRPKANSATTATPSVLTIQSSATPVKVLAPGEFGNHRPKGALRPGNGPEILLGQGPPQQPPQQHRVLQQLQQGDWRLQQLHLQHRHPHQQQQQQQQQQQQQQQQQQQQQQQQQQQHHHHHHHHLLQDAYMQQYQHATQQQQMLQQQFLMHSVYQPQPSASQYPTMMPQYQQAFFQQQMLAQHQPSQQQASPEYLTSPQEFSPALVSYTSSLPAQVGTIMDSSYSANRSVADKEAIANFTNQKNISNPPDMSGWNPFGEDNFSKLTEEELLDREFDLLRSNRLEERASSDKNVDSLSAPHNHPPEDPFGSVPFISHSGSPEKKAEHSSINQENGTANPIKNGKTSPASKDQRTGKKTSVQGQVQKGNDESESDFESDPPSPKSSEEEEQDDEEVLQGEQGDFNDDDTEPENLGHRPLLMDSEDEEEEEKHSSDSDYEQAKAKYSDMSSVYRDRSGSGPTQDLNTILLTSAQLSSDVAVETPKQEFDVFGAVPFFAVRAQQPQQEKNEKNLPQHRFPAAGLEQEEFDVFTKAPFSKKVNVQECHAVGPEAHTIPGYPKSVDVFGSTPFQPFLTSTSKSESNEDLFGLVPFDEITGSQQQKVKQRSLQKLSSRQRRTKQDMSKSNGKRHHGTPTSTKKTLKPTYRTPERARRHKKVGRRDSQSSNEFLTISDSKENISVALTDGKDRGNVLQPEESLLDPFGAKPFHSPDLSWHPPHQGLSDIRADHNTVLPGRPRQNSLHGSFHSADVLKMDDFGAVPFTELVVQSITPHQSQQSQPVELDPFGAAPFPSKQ
Chain of UniProt Q12852 (whole entry, looked up): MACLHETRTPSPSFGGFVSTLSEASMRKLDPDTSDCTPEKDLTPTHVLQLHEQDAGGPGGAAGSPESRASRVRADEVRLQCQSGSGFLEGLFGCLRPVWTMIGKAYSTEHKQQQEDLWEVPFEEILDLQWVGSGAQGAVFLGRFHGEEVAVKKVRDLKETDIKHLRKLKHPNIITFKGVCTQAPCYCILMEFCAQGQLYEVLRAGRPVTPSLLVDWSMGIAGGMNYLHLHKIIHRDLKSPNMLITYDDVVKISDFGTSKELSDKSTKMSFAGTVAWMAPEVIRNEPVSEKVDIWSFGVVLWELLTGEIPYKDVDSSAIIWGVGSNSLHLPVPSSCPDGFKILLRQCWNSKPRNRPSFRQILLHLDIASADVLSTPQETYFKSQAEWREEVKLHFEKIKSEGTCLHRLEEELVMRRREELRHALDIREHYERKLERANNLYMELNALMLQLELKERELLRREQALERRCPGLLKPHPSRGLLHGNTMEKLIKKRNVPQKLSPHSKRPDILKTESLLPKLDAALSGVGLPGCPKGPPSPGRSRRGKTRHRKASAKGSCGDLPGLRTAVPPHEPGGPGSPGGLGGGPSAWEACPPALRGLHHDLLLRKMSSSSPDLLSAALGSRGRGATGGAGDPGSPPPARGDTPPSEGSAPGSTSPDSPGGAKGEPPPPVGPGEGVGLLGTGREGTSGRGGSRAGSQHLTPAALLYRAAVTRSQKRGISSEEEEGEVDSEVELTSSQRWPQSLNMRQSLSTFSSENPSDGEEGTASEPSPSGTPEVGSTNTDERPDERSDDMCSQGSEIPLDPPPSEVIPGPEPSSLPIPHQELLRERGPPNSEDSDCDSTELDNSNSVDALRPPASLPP
Chain of UniProt Q12866 (whole entry, looked up): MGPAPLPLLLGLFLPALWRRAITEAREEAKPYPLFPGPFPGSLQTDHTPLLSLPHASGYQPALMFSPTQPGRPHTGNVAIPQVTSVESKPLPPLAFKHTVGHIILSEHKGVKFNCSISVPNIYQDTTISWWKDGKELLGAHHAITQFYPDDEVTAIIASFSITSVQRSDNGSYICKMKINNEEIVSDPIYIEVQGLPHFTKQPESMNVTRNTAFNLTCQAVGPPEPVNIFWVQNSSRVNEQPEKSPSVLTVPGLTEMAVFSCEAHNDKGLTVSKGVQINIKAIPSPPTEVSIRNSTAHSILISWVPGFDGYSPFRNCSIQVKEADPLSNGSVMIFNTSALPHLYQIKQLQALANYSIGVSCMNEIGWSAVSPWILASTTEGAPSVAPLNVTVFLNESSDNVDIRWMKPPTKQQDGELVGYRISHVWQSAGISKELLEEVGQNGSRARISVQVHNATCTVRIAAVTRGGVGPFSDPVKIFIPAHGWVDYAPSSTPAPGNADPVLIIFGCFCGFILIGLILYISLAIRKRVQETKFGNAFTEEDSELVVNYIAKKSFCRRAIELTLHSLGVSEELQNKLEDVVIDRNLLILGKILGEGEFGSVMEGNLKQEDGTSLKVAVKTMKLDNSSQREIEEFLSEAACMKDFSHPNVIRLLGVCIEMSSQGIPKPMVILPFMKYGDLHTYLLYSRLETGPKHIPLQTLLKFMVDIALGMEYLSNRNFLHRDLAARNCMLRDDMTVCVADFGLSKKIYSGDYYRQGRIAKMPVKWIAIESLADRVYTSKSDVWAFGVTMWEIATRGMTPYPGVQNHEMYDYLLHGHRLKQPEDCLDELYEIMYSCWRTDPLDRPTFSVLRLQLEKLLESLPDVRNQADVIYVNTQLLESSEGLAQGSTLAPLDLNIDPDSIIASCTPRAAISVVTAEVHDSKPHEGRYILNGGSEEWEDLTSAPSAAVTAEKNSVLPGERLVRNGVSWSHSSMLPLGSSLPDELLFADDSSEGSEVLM
Chain of UniProt Q9Y2H1 (whole entry, looked up): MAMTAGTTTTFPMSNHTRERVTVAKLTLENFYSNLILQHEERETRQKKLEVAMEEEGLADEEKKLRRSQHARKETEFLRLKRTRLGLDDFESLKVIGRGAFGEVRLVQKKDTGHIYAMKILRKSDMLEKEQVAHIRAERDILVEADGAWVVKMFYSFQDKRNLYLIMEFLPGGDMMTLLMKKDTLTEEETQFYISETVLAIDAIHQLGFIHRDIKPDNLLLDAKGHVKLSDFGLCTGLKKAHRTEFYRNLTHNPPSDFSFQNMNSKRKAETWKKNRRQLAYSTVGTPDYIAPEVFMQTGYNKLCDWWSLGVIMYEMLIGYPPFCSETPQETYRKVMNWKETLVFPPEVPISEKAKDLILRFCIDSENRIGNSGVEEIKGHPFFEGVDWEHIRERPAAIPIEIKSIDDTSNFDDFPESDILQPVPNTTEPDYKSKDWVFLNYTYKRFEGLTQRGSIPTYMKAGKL

Block 1
SMILES: O=C(NCc1ncc(C(F)(F)F)cc1Cl)c1ccc2c(c1)C1(CCS(=O)(=O)CC1)[C@@H](C1CC1)N2S(=O)(=O)c1ccc(F)cc1
Effect on: cell-free assay
Technique: competition with immobilised ligand
Tested at: 1 µM
Endpoint: remaining binding
ALK (Homo sapiens, UniProt Q9UM73, L1196M): 87%
MAP3K12 (Homo sapiens, UniProt Q12852): 87%
STK38L (Homo sapiens, UniProt Q9Y2H1): 94%
MERTK (Homo sapiens, UniProt Q12866): 100%
BMP2K (Homo sapiens, UniProt Q9NSY1): 76%
Tyrosine-protein kinase ABL1, non-phosphorylated (ABL1, Homo sapiens, UniProt P00519, H396P): 100%
ITK (Homo sapiens, UniProt Q08881): 100%

Block 2
Target: Histone acetyltransferase KAT6A, both winged helices, GST fusion (KAT6A, Homo sapiens, UniProt Q92794, residues 1-181)
Technique: protein binding microarray
Molecule type: double-stranded DNA, one strand shown
Matrix: in vitro
Tested at: not given
Setting: 8-mer, flanks averaged, mean of 2 arrays, mostly near background
Baseline: not given
Direction: higher = stronger binding
Endpoint: E-score
Target sequence (chain): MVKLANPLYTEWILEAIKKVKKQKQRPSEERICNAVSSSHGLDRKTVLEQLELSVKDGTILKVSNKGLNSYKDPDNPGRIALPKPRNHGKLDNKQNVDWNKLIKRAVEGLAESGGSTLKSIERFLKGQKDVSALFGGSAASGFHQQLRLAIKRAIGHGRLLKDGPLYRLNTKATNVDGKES
ATGCATGG: -0.0504
CATACGTC: -0.02
GCCAGACC: 0.029
CCCTGCTA: -0.138
AACTGGCA: -0.159
AACTATGC: 0.0232
GATTAGCC: 0.0745
GGGGCCCA: -0.12

Block 3
Species: mouse
Matrix: microsomes or S9
Tested at: 2 µM
Time: 0.5 h
Endpoint: remaining compound
Cc1ccc(Cn2cccc(NC(=O)NC3CCOC3C)c2=O)cc1 (stereo not shown): 55.7%
O=C1CCc2cc3oc(-c4ccc(F)cc4)nc3cc21: 16.7%
COc1cc(=O)n(C)cc1C(=O)Nc1cc(C)nc2ccccc12: 38.2%
CCn1[nH]cc/c1=N\C(=O)c1nn(-c2ccccc2)c(=O)c2ccccc12: 35.6%
Cc1c(C(=O)O)nnn1-c1cccc2cnccc12: > 100%

Block 4
Target: PABPC1L2, full length, GST fusion (mouse, UniProt A0ABA7IW68)
Technique: RNAcompete
Molecule type: RNA
Matrix: in vitro
Tested at: 20 nM
Setting: 7-mer, probes averaged, single round
Baseline: mean of 7-mers
Direction: higher = stronger binding
Endpoint: 7-mer Z-score
Target sequence (chain): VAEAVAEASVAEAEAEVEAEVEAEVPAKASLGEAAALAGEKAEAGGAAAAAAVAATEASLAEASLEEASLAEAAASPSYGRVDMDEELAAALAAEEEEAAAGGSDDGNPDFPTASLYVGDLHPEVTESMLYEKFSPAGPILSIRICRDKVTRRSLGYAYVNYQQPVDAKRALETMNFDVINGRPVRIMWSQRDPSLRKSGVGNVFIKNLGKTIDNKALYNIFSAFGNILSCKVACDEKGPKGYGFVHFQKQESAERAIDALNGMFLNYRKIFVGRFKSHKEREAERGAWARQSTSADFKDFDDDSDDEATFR
ACGCGCG: -0.358
AUGACAC: -0.05
GCGGGAC: 0.247
AAGUACU: 0.0932
CAGAGUA: 0.0207
CCGUAGG: -0.204
GGCCUUC: -0.325
GGUGGGA: 0.242

For quick reference, copied from above (block 2):
AACTGGCA: -0.159
AACTATGC: 0.0232
GATTAGCC: 0.0745
GGGGCCCA: -0.12
